Experimental data pooled from the literature.
Protocols differ between the studies behind these lines. ± marks the error that the study gave. Converted amounts (≈) assume the structure as drawn.
Organism: Acinetobacter baumannii

CC[C@H](C)[C@H](NC(=O)[C@H](CCCCN)NC(=O)[C@@H](NC(=O)[C@H](CS)NC(=O)[C@H](CCCNC(=N)N)NC(=O)[C@H](CCCNC(=N)N)NC(=O)[C@H](CC(N)=O)NC(=O)[C@H](CCCNC(=N)N)NC(=O)[C@H](CS)NC(=O)[C@@H](NC(=O)[C@H](CO)NC(=O)[C@@H](NC(=O)[C@H](CS)NC(=O)[C@H](CCCCN)NC(=O)[C@@H](N)CCCNC(=N)N)[C@@H](C)CC)C(C)C)[C@@H](C)CC)C(=O)N[C@@H](CS)C(=O)N[C@@H](CCCNC(=N)N)C(=O)O
MBC (AB5075, Mueller-Hinton broth; median): 8 µg/mL (≈ 3.8 µM)

CC(C)C[C@H](NC(=O)[C@H](Cc1ccc(O)cc1)NC(=O)[C@@H]1CCCN1C(=O)[C@H](CCCNC(=N)N)NC(=O)[C@@H]1CCCN1C(=O)[C@H](CCCCN)NC(=O)[C@H](CC(=O)O)NC(=O)[C@@H]1CCCN1C(=O)[C@H](CCCNC(=N)N)NC(=O)C1(N)CCCCC1)C(=O)N1CCC[C@H]1C(=O)N[C@@H](CCCNC(=N)N)C(=O)N1CCC[C@H]1C(=O)N[C@@H](CCCNC(=N)N)C(=O)N1CCC[C@H]1C(=O)N1CCC[C@H]1C(=O)N[C@@H](CCCNC(=N)N)C(=O)N1CCC[C@H]1C(=O)N[C@H](C(=O)N[C@@H](CCCNC(=N)N)C(=O)N[C@@H](CSc1c(F)c(F)c(-c2c(F)c(F)c(SC[C@H](NC(=O)[C@H](CCCNC(=N)N)NC(=O)[C@@H](NC(=O)[C@@H]3CCCN3C(=O)[C@H](CCCNC(=N)N)NC(=O)[C@@H]3CCCN3C(=O)[C@@H]3CCCN3C(=O)[C@H](CCCNC(=N)N)NC(=O)[C@@H]3CCCN3C(=O)[C@H](CCCNC(=N)N)NC(=O)[C@@H]3CCCN3C(=O)[C@H](CC(C)C)NC(=O)[C@H](Cc3ccc(O)cc3)NC(=O)[C@@H]3CCCN3C(=O)[C@H](CCCNC(=N)N)NC(=O)[C@@H]3CCCN3C(=O)[C@H](CCCCN)NC(=O)[C@H](CC(=O)O)NC(=O)[C@@H]3CCCN3C(=O)[C@H](CCCNC(=N)N)NC(=O)C3(N)CCCCC3)C(C)C)C(=O)NN)c(F)c2F)c(F)c1F)C(=O)NN)C(C)C
reduction in viable count (time-kill; 2 × MIC, 1 h): 0.68 log CFU/mL

Oc1cc(C(F)(F)F)ccc1-c1nc2c(C(F)(F)F)cc(C(F)(F)F)cc2[nH]1
colistin MIC (colistin potentiator; AB 17978, mcr-1, colistin-resistant; 5 µM): 0.5 µg/mL

CCn1c(-c2ccc(-c3ccc(F)cc3)cc2)c(-c2ccc(-c3ccc(F)cc3)cc2)n(CC)c1=[Se+][Au-][P+](CC)(CC)CC.Cl
IC50 (bacterial growth; carbapenem-resistant; 2 h): 20 µM

CC(C)C[C@H](NC(=O)[C@H](Cc1ccc(O)cc1)NC(=O)[C@@H]1CCCN1C(=O)[C@H](CCCNC(=N)N)NC(=O)[C@@H]1CCCN1C(=O)[C@H](CCCCN)NC(=O)[C@H](CC(=O)O)NC(=O)[C@@H]1CCCN1C(=O)[C@H](CCCNC(=N)N)NC(=O)C1(N)CCCCC1)C(=O)N1CCC[C@H]1C(=O)N[C@@H](CCCNC(=N)N)C(=O)N1CCC[C@H]1C(=O)N[C@@H](CCCNC(=N)N)C(=O)N1CCC[C@H]1C(=O)N1CCC[C@H]1C(=O)N[C@@H](CCCNC(=N)N)C(=O)N1CCC[C@H]1C(=O)N[C@H](C(=O)N[C@@H](CCCNC(=N)N)C(=O)N[C@@H](CSc1c(F)c(F)c(SC[C@H](NC(=O)[C@H](CCCNC(=N)N)NC(=O)[C@@H](NC(=O)[C@@H]2CCCN2C(=O)[C@H](CCCNC(=N)N)NC(=O)[C@@H]2CCCN2C(=O)[C@@H]2CCCN2C(=O)[C@H](CCCNC(=N)N)NC(=O)[C@@H]2CCCN2C(=O)[C@H](CCCNC(=N)N)NC(=O)[C@@H]2CCCN2C(=O)[C@H](CC(C)C)NC(=O)[C@H](Cc2ccc(O)cc2)NC(=O)[C@@H]2CCCN2C(=O)[C@H](CCCNC(=N)N)NC(=O)[C@@H]2CCCN2C(=O)[C@H](CCCCN)NC(=O)[C@H](CC(=O)O)NC(=O)[C@@H]2CCCN2C(=O)[C@H](CCCNC(=N)N)NC(=O)C2(N)CCCCC2)C(C)C)C(=O)NN)c(F)c1F)C(=O)NN)C(C)C
MBC (19606): 14.1 ± 0.9 µg/mL (≈ 2.64 µM)

CCn1c(-c2ccc(OC)cc2)c(-c2ccc(OC)cc2)n(CC)c1=[Se+][Au-][P+](CC)(CC)CC.[Cl-]
glutathione content (carbapenem-resistant; 10, 20, 40 µM, 2 h; relative to: untreated): decreased

Oc1ccc(C(F)(F)F)cc1-c1nc2c(Cl)cc(Cl)cc2[nH]1
colistin MIC (colistin potentiator; AB 1G2, colistin-resistant; 5 µM): 0.25 µg/mL

O=c1c(O)ccc(Br)cc1O
MIC80 (multidrug-resistant Ab3): 19.8 µM (≈ 4.3 µg/mL)

Repeated from above:
Oc1ccc(C(F)(F)F)cc1-c1nc2c(Cl)cc(Cl)cc2[nH]1
colistin MIC (colistin potentiator; AB 1G2, colistin-resistant; 5 µM): 0.25 µg/mL
